Results gathered from unrelated publications.

`COC1CN([C@H]2CC[C@H]([C@@]3(C)Oc4c(Cl)cc(C(=O)NCc5c(SC)cc(C)[nH]c5=O)c(C)c4O3)CC2)C1` — result for “log2 fold change”: 2.12 (RNA-seq, measured: N4BP3; human, whole blood; dose not given, 24 h; relative to: pretreatment baseline).
Under “log2 fold change”, `c1ccc(-c2n[nH]cc2-c2ccnc3ccccc23)nc1` is recorded as 0.24 (RIM15 (Candida albicans); kinase binding, MIB/MS competition; Candida albicans lysate; 1 µM; relative to: DMSO).
With `CNS(=O)(=O)Nc1nccc(Cc2c(C)c3ccc(Oc4ncccc4F)cc3oc2=O)c1F` the IC50 was > 1 µM (REH; cell viability, CellTiter-Glo; 7 days).
Under “log2 fold change”, `Cn1ncc2cc(-c3cncc(Cl)c3N3CCC4(CCNC4=O)CC3)ccc21` is recorded as -1.74 (LS174T; gene expression, microarray, measured: GZMB mRNA; concentration not given, 4 h; relative to: untreated cells).
`Nc1ncc(-c2cc(-c3cnn(CC(F)(F)F)c3)ncc2F)nc1C(=O)NC1CNCC(F)C1` (stereo not drawn) has a remaining binding of 92% (CDK3; KINOMEscan; 1 µM; relative to: DMSO control).
For `Cc1ncsc1-c1ccc(C(C)NC(=O)C2CC(O)CN2C(=O)C(NC(=O)CCCCCCCCCCN2CCCC(Nc3ncc(Cl)c(Nc4ccccc4S(=O)(=O)C(C)C)n3)C2)C(C)(C)C)cc1` (stereo not drawn), “log2 fold change” read -1.14 (22Rv1; RNA-seq, measured: ZNF566 mRNA; concentration not given; relative to: DMSO).
Under “percent of control”, `C=CC(=O)Nc1cccc(Cn2ncc3cnc(Nc4cnn(CCOC)c4)nc32)c1` is recorded as 77% (CDKL3 human; binding, KINOMEscan; 100 nM; lower = stronger binding).
Under “log2 fold change”, `CN1CCCNC(=O)c2cccc(c2)C(=O)NCCCN(C)CCCNc2cccc3c2C(=O)c2cccc(c2C3=O)NCCC1` is recorded as -2.19 (SAS; RNA-Seq, measured: COPS6 mRNA; 5 µM, 24 h; relative to: untreated cells).
With `CCN(C(=O)c1cc(F)ccc1Oc1nncnc1N1CCC2(C1)CN([C@H](CCCN(C)CCOC)C(C)C)C2)C(C)C` the GI50 was > 10 µM (IMR-90; cell growth or viability; 72 h).

For quick reference, copied from above:
For `Cc1ncsc1-c1ccc(C(C)NC(=O)C2CC(O)CN2C(=O)C(NC(=O)CCCCCCCCCCN2CCCC(Nc3ncc(Cl)c(Nc4ccccc4S(=O)(=O)C(C)C)n3)C2)C(C)(C)C)cc1` (stereo not drawn), “log2 fold change” read -1.14 (22Rv1; RNA-seq, measured: ZNF566 mRNA; concentration not given; relative to: DMSO).
